Assay results of several laboratories.
Each numbered part is a random draw from the data of one study; scales do not carry over between parts. Positions count from the first letter of the parent shown.

Set 1 — method: universal PBM; molecule type: double-stranded DNA, one strand shown; matrix: in vitro; tested at: not given; direction: higher = stronger binding; measurement: E-score
Target: Sal-like protein 4, full length isoform B (SALL4, Homo sapiens, UniProt Q9UJQ4-2, residues 1-616)
Setting: 8-mer, flanks averaged, mean of replicates
Oligonucleotide = CCCCAATC; result = -0.146
Oligonucleotide = AACTTATT; result = 0.318
Oligonucleotide = CGTTGAGA; result = -0.16
Oligonucleotide = CGCGCAGC; result = -0.369
Oligonucleotide = GAGAGGGA; result = -0.144
Oligonucleotide = AACATGGT; result = 0.096
Oligonucleotide = GATCTAGA; result = 0.0773

Set 2 — method: RNA Bind-n-Seq; molecule type: RNA; matrix: in vitro; tested at: 200 nM; setting: whole 134-nt RNA, ends assumed; together with: 150 mM KCl; reference: input library; direction: higher = stronger binding; measurement: log2 enrichment
Target: Ras GTPase-activating protein-binding protein 1, full length (G3BP1, Homo sapiens, UniProt Q13283)
UniProt Q13283, sequence (whole entry, looked up): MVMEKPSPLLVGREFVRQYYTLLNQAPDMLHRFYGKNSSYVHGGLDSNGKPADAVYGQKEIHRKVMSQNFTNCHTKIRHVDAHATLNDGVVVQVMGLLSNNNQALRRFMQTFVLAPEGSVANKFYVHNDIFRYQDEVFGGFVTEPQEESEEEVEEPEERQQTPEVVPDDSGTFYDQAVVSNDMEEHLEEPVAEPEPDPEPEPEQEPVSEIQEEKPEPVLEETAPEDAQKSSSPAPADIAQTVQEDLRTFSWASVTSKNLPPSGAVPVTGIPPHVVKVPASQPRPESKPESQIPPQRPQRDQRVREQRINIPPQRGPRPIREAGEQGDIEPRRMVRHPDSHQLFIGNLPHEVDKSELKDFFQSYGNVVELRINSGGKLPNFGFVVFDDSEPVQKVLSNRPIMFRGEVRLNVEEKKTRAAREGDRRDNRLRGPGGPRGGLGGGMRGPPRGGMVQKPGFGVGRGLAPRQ
Oligonucleotide = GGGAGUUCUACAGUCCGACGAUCGUCCUGUGCUACACAUCGUAUGUACCGAAUCGGAAAAAGGGGAAAAAGGGAAAAAGGGGAAAGUAUUAUGUUACGCCGUUCGGAUCUGCAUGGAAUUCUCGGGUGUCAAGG; result = -0.189
Oligonucleotide = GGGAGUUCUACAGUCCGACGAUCUUCAGGAUGAAGAUGCAUCAGGGGGCGAUCAAGAUCAGGAAGAAAGAAGAUGGAACAAAAGGACUCAGCAGAUGCUUCAUGGUCUUCAGGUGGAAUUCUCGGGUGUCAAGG; result = -0.891
Oligonucleotide = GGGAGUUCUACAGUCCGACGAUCUCCUCAAGUCCUGUGCUACACAUCGUAUGUACCGAAUCGGAGGGGAGGAGGGAAAGUAUUAUGUUACGCCGUUCGGAUCUGCACUUCCAGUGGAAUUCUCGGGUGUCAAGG; result = 0.334
Oligonucleotide = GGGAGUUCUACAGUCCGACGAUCUGGGAGGUGGAUUUUGUUUAUUUUUUUAGCUCAUUUCCAGGGGUGGGAAUUUUUUUUUAAUAUGUGUCAUGAAUAAACUUGUUUUUGAAAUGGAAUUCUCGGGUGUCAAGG; result = 0.156
Oligonucleotide = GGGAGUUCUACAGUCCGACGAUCGUCCUGUGCUACACAUCGUAUGUACCGAAUCGGGGUUUUGGGGUUUUGGGGUUUUGGGGAAAGUAUUAUGUUACGCCGUUCGGAUCUGCAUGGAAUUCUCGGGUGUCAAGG; result = 0.188
Oligonucleotide = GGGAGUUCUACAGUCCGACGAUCCUCAAGUCCUGUGCUACACAUCGUAUGUACCGAAUCGGAAGGAAGGGAAGGGGAAAGUAUUAUGUUACGCCGUUCGGAUCUGCACUUCCAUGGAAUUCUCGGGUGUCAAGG; result = -0.185
Oligonucleotide = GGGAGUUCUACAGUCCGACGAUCUGGCCCUGGUGGCAUGCGGGGAGGAAGAGGUGGCCUCAUGGAUCGUGGUGGUCCCGGUAGAAUGUUCAGAGGUGGCCGUGGUGGAGACAGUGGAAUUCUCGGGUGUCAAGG; result = 0.0655
Oligonucleotide = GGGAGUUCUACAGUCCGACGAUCCCUCAAGUCCUGUGCUACACAUCGUAUGUACCGAAUCGGGGCGGCGGGCGGGGAAAGUAUUAUGUUACGCCGUUCGGAUCUGCACUUCCAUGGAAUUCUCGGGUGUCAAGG; result = 0.872
Oligonucleotide = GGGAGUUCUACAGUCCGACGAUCCCUGUGCUACACAUCGUAUGUACCGAAUCGGGGAAAAAAAGGGGUUUUUUUGGGGAGGGGAAAGUAUUAUGUUACGCCGUUCGGAUCUGCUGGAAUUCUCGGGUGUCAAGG; result = 0.502

Set 3 — method: DHFR PCA, deep sequencing; matrix: yeast; together with: (+)-ABA 0.39 µM; reference: wild-type fitted maximum; direction: higher = stronger binding; measurement: relative binding score
Target: ABI1, truncated, D143A, DHFR fusion (Arabidopsis thaliana)
Setting: methotrexate growth selection, single substitutions
Starting sequence: PYL1, truncated, DHFR fusion (Arabidopsis thaliana); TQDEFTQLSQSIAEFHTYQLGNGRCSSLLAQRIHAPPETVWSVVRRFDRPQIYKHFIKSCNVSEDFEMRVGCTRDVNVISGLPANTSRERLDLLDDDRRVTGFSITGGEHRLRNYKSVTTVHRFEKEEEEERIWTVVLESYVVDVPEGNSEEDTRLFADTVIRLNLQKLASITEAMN
Variant = E14R; result = 8.26%
Variant = I57R; result = -1.64%
Variant = F124L; result = 60.1%
Variant = S80F; result = 51.5%
Variant = T73S; result = 16%
Variant = G148T; result = -29.9%

Other studies, line by line
Substance = PhoQ, residues 284 288 289 292 302 303 NLGVHL; target = PhoP, residues 12 14 15 18 19 HLGGL (Escherichia coli, UniProt P23836); test = Sort-seq, refers to: YFP reporter; system = E. coli; conditions = PhoQ-PhoP variant library, together with: 10 µM Mg2+; scale = reference: high Mg2+ state, higher = stronger signaling; measurement = fold induction; result = 10.1
